Assay results from different studies.
A part holds a random share of what one study measured. Positions count from the first letter of the parent shown.

Sample 1 — method: protein-binding microarray; form: double-stranded DNA, one strand shown; sample: in vitro; tested at: 250 nM; setting: 60-bp whole probe; with: salmon DNA 0.4 mg/ml; baseline: random background probes; direction: higher = stronger binding; shared flanks, not repeated: GCCTAGCAC … GTCTTGATTCGCTTGACGCTGCTG
Target: Interferon regulatory factor 5, full length, phosphomimetic (IRF5, Homo sapiens, UniProt Q13568-2, residues 1-514, K96S/S451D/S453D/S456D/S462D)
`GACGGTATCGGTCTCGGTACGTGCTAG` gave a log fluorescence of 5.78 z-score.
With `TTAGAACTGGGGACGGGATTAGTGCTA` the log fluorescence was -0.0599 z-score.
`GGGAGCTATTAATTATTTTGGTGCTAG` gave a log fluorescence of 0.0714 z-score.
The log fluorescence of `ACTGATCACCGATTTCCTTCAGTGCTA` is reported as 0.291 z-score.
The log fluorescence of `GACGGACTGCTTTTACTGACGTGCTAG` is reported as -0.199 z-score.
With `GACGGTCTCTGTCTCGGGACGTGCTAG` the log fluorescence was -0.183 z-score.
`TTAGGTTTGGACTTTCGGTTAGTGCTA` gave a log fluorescence of 8.72 z-score.

Sample 2 — method: Sort-seq; item: YFP reporter; sample: E. coli; setting: PhoQ-PhoP variant library; with: 10 µM Mg2+; baseline: high Mg2+ state; direction: higher = stronger signaling
Molecule: PhoQ, residues 284 288 289 292 302 303 SMMNNA
It gave 7.81 for fold induction (PhoP, residues 12 14 15 18 19 QYCSL (Escherichia coli, UniProt P23836)).
The fold induction was 0.609 (PhoP, residues 12 14 15 18 19 STHWV (Escherichia coli, UniProt P23836)).
PhoP, residues 12 14 15 18 19 SHWTV (Escherichia coli, UniProt P23836) — fold induction: 1.28.

Sample 3 — method: RNA Bind-n-Seq; form: RNA; sample: in vitro; tested at: 365 nM; baseline: no-protein control; direction: higher = stronger binding
Target: RNA binding protein fox-1 homolog 2, RRM domain, GST-SBP tag (RBFOX2, Homo sapiens, UniProt O43251-10, residues 100-194)
Setting: natural RNA segment, single round, ends assumed
Shared flanks, not repeated: GGGAGUUCUACAGUCCGACGAUC … UGGAAUUCUCGGGUGCCAA
Construct (chain): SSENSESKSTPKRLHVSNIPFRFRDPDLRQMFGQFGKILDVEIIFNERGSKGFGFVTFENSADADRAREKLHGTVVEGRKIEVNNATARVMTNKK
`AUUUCAACAUAUGGCUUCAGAACAUGAAGAUGUUCUUGUAUGGAUUAUAGUAUCUAGUAUUCAAAAAUGCCUGCAUCUCUUCUCUUAUUUAUUGUAAGUUUUUAAAUGUA` — result for “RBNS enrichment (R)”: 0.324.
For `GGUGUAUGGUGGGGGCAAUAAAUGAGGUUUUUUGCAUUCCAAGGAAAUGGCAUAUGGAUUAACUAUAAGAAAUGAAAUAAGUAAUUUAUUGUAAGACAACAUCAAGCCAU`, “RBNS enrichment (R)” read 0.772.
`ACCUCACCUUUAGUGCUUUCUUUAAAGAAGCUGAGGGGUGAAGUUUGCUUACUGAUGUAUCUAUUUGUACAGAUAGUGGAGAGCUAGUUGCUAAUAAUGUCUUGUUUGGG` — result for “RBNS enrichment (R)”: 0.635.
`GUGUGUACUGCCUGCUGGACUGAAGAGACAUGCCUGUCUUUAUGUGAGAGGCUGGCUUUUGUUUACUAAGUUGUAGCAUUUAGACAUCCCAUGGCAGUCUAACUUAGCCU` — result for “RBNS enrichment (R)”: 0.698.
`UCUCAGCGCUUGAGGAGUGCUGCCUGAUUCUUCUGCAAGCCCCACUGGGAGCCACCACCUCCGGCUCCUGGGUGACUUUACACCUAGAUGCUCCGAGAGCUACUGCAUCU` — result for “RBNS enrichment (R)”: 0.619.
`UAUAUUCCUGUAAAUGUCAGUUACUGAAAAUGAGUCCAAUGUAAGUAGUUUAGCUUGUUUAUUGCAAUGCUGGCCUCAACACAACAGAAUAAAAAUGGUAGAAAGUACUC`: “RBNS enrichment (R)” 1.01.
Under “RBNS enrichment (R)”, `CUCCAGAGUUGAGCUUGUCCUUAUCUAGAAACAUGUGAAGAUGCCCAAGAGCCUGGAGGCACUGCUGUCCUUCCUGCAGAAACAGUUUCUCCUCCUCCCCUCAGCCUUGU` is recorded as 0.683.

Other studies, line by line — target: CCNE2, cyclin fold, Cln2 fusion (human); method: yeast growth competition, sequencing; sample: yeast; setting: strong parent motif; baseline: not given; direction: higher = stronger binding
Parent: CDC25A docking peptide (human); PPHRRRLLFACSP
`PPHRRRLLFAISP [C11I]`: “normalised enrichment score” 1.92.
Under “normalised enrichment score”, `PPHRRRLLFACQP [S12Q]` is recorded as 1.05.

For quick reference, copied from above (sample 3):
`AUUUCAACAUAUGGCUUCAGAACAUGAAGAUGUUCUUGUAUGGAUUAUAGUAUCUAGUAUUCAAAAAUGCCUGCAUCUCUUCUCUUAUUUAUUGUAAGUUUUUAAAUGUA` — result for “RBNS enrichment (R)”: 0.324.
`UCUCAGCGCUUGAGGAGUGCUGCCUGAUUCUUCUGCAAGCCCCACUGGGAGCCACCACCUCCGGCUCCUGGGUGACUUUACACCUAGAUGCUCCGAGAGCUACUGCAUCU` — result for “RBNS enrichment (R)”: 0.619.
For `GGUGUAUGGUGGGGGCAAUAAAUGAGGUUUUUUGCAUUCCAAGGAAAUGGCAUAUGGAUUAACUAUAAGAAAUGAAAUAAGUAAUUUAUUGUAAGACAACAUCAAGCCAU`, “RBNS enrichment (R)” read 0.772.
